# Measured values gathered from unrelated publications.
# Parts stem from different laboratories: compare values within a part only.

# Study 1
# Target: Centromere-binding protein 1, full length, N-terminal tag (CBF1, Saccharomyces cerevisiae, UniProt P17106, residues 1-351)
# Sequence of UniProt P17106 (whole entry, looked up): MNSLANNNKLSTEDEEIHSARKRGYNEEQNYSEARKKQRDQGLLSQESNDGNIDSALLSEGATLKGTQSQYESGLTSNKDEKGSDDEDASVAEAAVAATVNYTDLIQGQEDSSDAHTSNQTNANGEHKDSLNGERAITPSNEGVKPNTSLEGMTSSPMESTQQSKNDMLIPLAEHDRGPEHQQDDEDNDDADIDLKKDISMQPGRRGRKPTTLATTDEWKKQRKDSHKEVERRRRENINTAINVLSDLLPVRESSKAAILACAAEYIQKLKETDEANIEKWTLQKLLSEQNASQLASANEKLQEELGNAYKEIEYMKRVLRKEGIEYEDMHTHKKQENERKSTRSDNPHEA
# Technique: protein-binding microarray
# Form: double-stranded DNA, one strand shown
# Sample: in vitro
# Tested at: 0.8 µM
# Notes: whole 60-bp probe, no competitor
# Direction: higher = stronger binding
Oligonucleotide,fluorescence intensity
GAAATAATATACTAAGTGATGATGATGTGGCAATAGGTCTTGATTCGCTTGACGCTGCTG,557 a.u.
GAATTGGCTGGGCGGCATGTGAAGTTTTTGGCCTAGGTCTTGATTCGCTTGACGCTGCTG,537 a.u.
GAAGCACTTTTTATGCACGTGCATCGTACAATTTAGGTCTTGATTCGCTTGACGCTGCTG,11400 a.u.
CTAGAAAATCGCTCCCGCGTGTCTACTGGACTTTTCGTCTTGATTCGCTTGACGCTGCTG,536 a.u.

# Study 2
# Target: Prothrombin, mature alpha-thrombin (F2, Homo sapiens, UniProt P00734)
# Technique: aptamer microarray, sandwich
# Form: DNA with 2'F-ANA
# Sample: in vitro
# Tested at: 200 nM
# Notes: whole 15-mer aptamer, many near background
# Added: Cy3 exosite-II aptamer, 400 nM
# Direction: higher = stronger binding
Oligonucleotide,mean fluorescence intensity [a.u.]
GGTTGGTGTGGTTGG (2'F-ANA at 1 3 4 6 8 13 15),156
GGTTGGTGTGGTTGG (2'F-ANA at 2 3 5 6 7 8 9 11 14 15),54.7
GGTTGGTGTGGTTGG (2'F-ANA at 4 6 10 11 14 15),56.3
GGTTGGTGTGGTTGG (2'F-ANA at 2 4 12 15),590

# Study 3
# Target: Fragile X messenger ribonucleoprotein 1, C-terminal low-complexity region (Fmr1, Mus musculus, UniProt P35922)
# Technique: RNA Bind-n-Seq
# Form: RNA
# Sample: in vitro
# Tested at: 200 nM
# Notes: whole 134-nt RNA, ends assumed
# Added: 150 mM KCl
# Reference: input library
# Direction: higher = stronger binding
Oligonucleotide,log2 enrichment
GGGAGUUCUACAGUCCGACGAUCCAAGUCCUGUGCUACACAUCGUAUGUACCGAAUCGGGAAAGGGUUUGGGAAAGGGAAAGUAUUAUGUUACGCCGUUCGGAUCUGCACUUCUGGAAUUCUCGGGUGUCAAGG,0.704
GGGAGUUCUACAGUCCGACGAUCCACAGACAACACGCACCCACACAGACACAGAGGGAAGGGGUUGGGAUGGGGACAAAGUGCACAGCAGGGCGGGGUAGGACCCCAGCCCCUUGGAAUUCUCGGGUGUCAAGG,1.26
GGGAGUUCUACAGUCCGACGAUCCCUGUGCUACACAUCGUAUGUACCGAAUCGGGUUUUUUUGGGAAAAAGGGUUUUUUUGGGAAAGUAUUAUGUUACGCCGUUCGGAUCUGCUGGAAUUCUCGGGUGUCAAGG,-0.827
GGGAGUUCUACAGUCCGACGAUCGCAGGAAGUAAAAACAAAUGGAAAUGCUUCGGAUAGUCGCAGGGGUGGGGGUUGCUAAGGAAAGGGUGGGAUGGGAGUGGGUAAAGAGUUUGGAAUUCUCGGGUGUCAAGG,0.434

# Single results of other studies
Substance,target,test,system,conditions,scale,measurement,value
"PhoQ, residues 284 288 289 292 302 303 ALVSVA","PhoP, residues 12 14 15 18 19 GQAIL (Escherichia coli, UniProt P23836)","Sort-seq, measured: YFP reporter",E. coli,"PhoQ-PhoP variant library, added: 10 µM Mg2+","reference: high Mg2+ state, higher = stronger signaling",fold induction,16.6
